Experimental data gathered from unrelated publications.
Lines come from different studies, so protocols differ. Several values in a cell are separate wells, animals, samples, runs or records. Numbers after ± are the reported error.

Compound	test system	conditions	how to read	fluorescence quantum yield
[C-]#[O+].[C-]#[O+].[C-]#[O+].[C-]#[O+].[C-]#[O+].[C-]#[O+].[Cl-].[Cl-].[Re+].[Re+].c1cnc(-c2ncccn2)nc1	10% DMSO	–	baseline: quinine sulfate	0.0143 and 0.014
NCCC(=O)N1Cc2ccccc2-c2c(nnn2-c2nc(N)c3ncn(C4OC(CO)C(O)C4O)c3n2)-c2ccccc21 (mixture of isomers)	–	–	–	10.6%
CN1CCC(C)(C)c2cc3c(-c4ccc(C(=O)N5CCCCC5)s4)c4ccc(=[N+](C)C)cc-4sc3cc21	methanol	with: excitation 532 nm	–	0.09 ± 0.01
COc1cc(OC)cc(C2=C3C(C)=C(I)C(/C=C/c4c[nH]c5ccc([N+](=O)[O-])cc45)=[N+]3[B-](F)(F)n3c(/C=C/c4c[nH]c5ccc([N+](=O)[O-])cc45)c(I)c(C)c32)c1	THF	–	baseline: methylene blue	0.03
CC1(C)C(/C=C/C2=C(Cl)C(=C/C=C3/N(CCCCCC(=O)O)c4ccccc4C3(C)C)/C[N+](C)(C)C2)=[N+](CCCCCC(=O)O)c2ccccc21	10 mM PBS	pH 7.4, excitation 730 nm	–	0.051
COc1cc(OC)cc(C2=C3C(C)=C(I)C(/C=C/c4cccs4)=[N+]3[B-](F)(F)n3c(/C=C/c4cccs4)c(I)c(C)c32)c1	THF	–	baseline: methylene blue	0.01
CC1=CC(C)=[N+]2C1=C(CCCC(=O)NCCCCCC(=O)NCCCC[C@H](NC(=O)N[C@@H](CCC(=O)O)C(=O)O)C(=O)O)c1c(C)cc(C)n1[B-]2(F)F	acetonitrile/water	–	–	86 ± 5%
COc1cc(/C=C2\SC(=S)NC2=O)cc(OC)c1OC	PBS	free ligand	–	0.05%
C[Si](C)(C)CCOC(=O)CCC1(Cc2ccccc2)c2ccccc2-c2ccc(-c3sc(-c4c5c(c(-c6sc(-c7ccc8c(c7)C(CCC(=O)OCC[Si](C)(C)C)(Cc7ccccc7)c7ccccc7-8)c7c6OCCO7)c6nsnc46)N=S=N5)c4c3OCCO4)cc21 (stereo not shown)	dichloromethane	–	baseline: IR-26	15.2%
COc1ccc2cc(-c3ccc(-c4ccc(C)cn4)nc3)oc2c1	dioxane	with: quinine bisulfate reference	–	0.78
CCn1cc(/C=C/c2sc3ccccc3[n+]2CC)c2ccccc21	methanol	–	baseline: fluorescein	0.033
COc1cc(OC)cc(C2=C3C(C)=C(I)C(C)=[N+]3[B-](F)(F)n3c(/C=C/c4cccs4)c(I)c(C)c32)c1	THF	–	baseline: methylene blue	0.3
COCCOCCOCCOCCC(=O)NCc1cc(CNC(=O)CCOCCOCCOCCOC)cc(-c2cc3cc4nc(c(-c5ccc(CCC(=O)O)cc5)c5[nH]c(cc6nc(c(OC)c2[nH]3)CC6(C)C)cc5-c2cc(CNC(=O)CCOCCOCCOCCOC)cc(CNC(=O)CCOCCOCCOCCOC)c2)CC4(C)C)c1	DMF	room temperature	–	0.16
CN1CCC(C)(C)c2cc3c(-c4ccc(C(=S)N5CCCCC5)s4)c4ccc(=[N+](C)C)cc-4sc3cc21	methanol	with: excitation 532 nm	–	0.07 ± 0.01
CCOC(=O)c1[nH]c(C)c(/C=C/c2c(I)c(C)c3n2[B-](F)(F)[N+]2=C(C)C(I)=C(C)C2=C3c2cc(OC)cc(OC)c2)c1C	dichloromethane	–	baseline: methylene blue	0.21
COc1ccc(/C=C/c2ccc(-c3ccc(C)cn3)nc2)cc1	aqueous HEPES buffer	pH 7.4, zinc-free ligand, with: quinine bisulfate reference	–	0.05
Cc1c(C)c(C)[c-](C)c1C.[C-]#[O+].[C-]#[O+].[C-]#[O+].[Cl-].[Cl-].[Cl-].[Ir+3].[Re+].c1cnc(-c2ncccn2)nc1	10% DMSO	–	baseline: quinine sulfate	0.0077

Compound	test system	conditions	how to read	fluorescence quantum yield
CC1=[N+]2C(=C(CCl)c3ccc(C)n3[B-]2(F)F)C=C1	PBS/DMSO 90:10 v/v	about 1 µM, pH 8.0	–	26.1 ± 0.8%
Cc1ccc(-c2ccc(-c3cc4sccc4o3)cn2)nc1	toluene	with: quinine bisulfate reference	–	0.58
CC1=CC(C)=[N+]2C1=C(c1ccc(C[P+](c3ccccc3)(C3CCCCC3)C3CCCCC3)cc1)c1c(C)cc(C)n1[B-]2(F)F	PBS	10 µM, pH 7.4, 298 K, with: fluorescein standard	–	0.67
COCCOCCOCCOCCOCCOCCOCCOCCC(=O)NCCCc1cc2cc3nc(cc4[nH]c(cc5nc(c(OC)c1[nH]2)C(=O)C5(C)C)cc4CCc1ccc(C(=O)O)cc1)CC3(C)C	DMF	room temperature	–	0.19
COCCOCCOc1ccc([P+](Cc2ccc(C3=C4C(C)=CC(C)=[N+]4[B-](F)(F)n4c(C)cc(C)c43)cc2)(c2ccc(OCCOCCOC)cc2)c2ccc(OCCOCCOC)cc2)cc1	PBS	10 µM, pH 7.4, 298 K, with: fluorescein standard	–	0.62
CCCCN1C(=O)c2cccc3c(NCCCCCN4CCOCC4)ccc(c23)C1=O	water	pH 6	baseline: fluorescein/0.1 N NaOH	0.27
NCCC(=O)N1Cc2ccccc2-c2c(nnn2-c2nc3c(N)ncnc3n2C2OC(CO)C(O)C2O)-c2ccccc21 (mixture of isomers)	methanol	–	baseline: quinine sulfate	0.017
CCn1cc(/C=C/c2ccc3ccccc3[n+]2CC)c2ccccc21	DMSO	–	baseline: fluorescein	0.006
NCCC(=O)N1Cc2ccccc2-c2c(nnn2-c2cn(C3OC(CO)C(O)C3O)c(=O)[nH]c2=O)-c2ccccc21 (mixture of isomers)	methanol	–	baseline: quinine sulfate	0.013
CC1=CC(C)=[N+]2C1=C(CCCC(=O)NCC1CCC(C(=O)NC(Cc3ccc4ccccc4c3)C(=O)NCCCCC(NC(=O)NC(CCC(=O)O)C(=O)O)C(=O)O)CC1)c1c(C)cc(C)n1[B-]2(F)F (stereo not shown)	acetonitrile/water	–	–	81 ± 5%
COc1cc(OC)cc(C2=C3C(C)=C(I)C(/C=C/c4c[nH]c5ccccc45)=[N+]3[B-](F)(F)n3c(/C=C/c4c[nH]c5ccccc45)c(I)c(C)c32)c1	dichloromethane	–	baseline: methylene blue	0.15
O=c1[nH]c(=O)n(C2OC(CO)C(O)C2O)cc1-n1nnc2c1CCC1C(CO)C1CC2 (mixture of isomers)	methanol	–	baseline: quinine sulfate	0.011
CCOC(=O)c1[nH]c(C)c(/C=C/C2=[N+]3C(=C(c4cc(OC)cc(OC)c4)c4c(C)c(I)c(/C=C/c5c(C)[nH]c(C(=O)OCC)c5C)n4[B-]3(F)F)C(C)=C2I)c1C	DMSO	–	baseline: methylene blue	0.07
CC1=CC(C)=[N+]2C1=C(c1ccc(C[P+](c3ccccc3)(c3ccccc3)c3ccccc3)cc1)c1c(C)cc(C)n1[B-]2(F)F	PBS	10 µM, pH 7.4, 298 K, with: fluorescein standard	–	0.59
COc1cc(OC)cc(C2=C3C(C)=C(I)C(C)=[N+]3[B-](F)(F)n3c(/C=C/c4c[nH]c5ccccc45)c(I)c(C)c32)c1	dichloromethane	–	baseline: methylene blue	0.19
Nc1ncnc2c1nc(-n1nnc3c1CCC1C(CO)C1CC3)n2C1OC(CO)C(O)C1O (mixture of isomers)	methanol	–	baseline: quinine sulfate	0.006
CC1=CC(C)=[N+]2C1=C(CCCC(=O)NCCCC[C@H](NC(=O)N[C@@H](CCC(=O)O)C(=O)O)C(=O)O)c1c(C)cc(C)n1[B-]2(F)F	acetonitrile/water	–	–	81 ± 5%
